{"data": "Measured values gathered from unrelated publications", "note": "Parts stem from different laboratories: compare values within a part only."}
{"data": "Series 1", "target": "Myc proto-oncogene protein, bHLH-zipper, MAX partner unstated (MYC, Homo sapiens, UniProt P01106, residues 368-449)", "method": "protein-binding microarray", "molecule type": "double-stranded DNA, one strand shown", "medium": "in vitro", "concentration": "not given", "setting": "k-mer, scored over probes, only values ≥0.25", "reading": "higher = stronger binding", "sequence of UniProt P01106 (368-449, looked up)": "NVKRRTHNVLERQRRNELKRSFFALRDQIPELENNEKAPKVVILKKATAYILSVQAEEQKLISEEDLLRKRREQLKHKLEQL"}
{"Sequence": "AACGCGTG", "E-score": 0.445}
{"Sequence": "CCCGTGGC", "E-score": 0.295}
{"Sequence": "GCACGCAC", "E-score": 0.389}
{"Sequence": "CGCACACA", "E-score": 0.264}
{"Sequence": "CGCATGCC", "E-score": 0.432}
{"Sequence": "ACCGCCAC", "E-score": 0.277}
{"Sequence": "ACTCACGC", "E-score": 0.289}
{"Sequence": "CACTCCCC", "E-score": 0.287}
{"Sequence": "ACCCCACG", "E-score": 0.302}
{"Sequence": "CATGCCAC", "E-score": 0.378}
{"Sequence": "CGTGCGTC", "E-score": 0.431}
{"Sequence": "ATGTGTGC", "E-score": 0.335}
{"Sequence": "ACATGAGC", "E-score": 0.266}
{"Sequence": "CCCGACCC", "E-score": 0.268}
{"Sequence": "ATGTGCAG", "E-score": 0.291}
{"Sequence": "ATGCGCTA", "E-score": 0.265}
{"Sequence": "AGGAGGGG", "E-score": 0.331}
{"data": "Series 2", "target": "RNA binding protein fox-1 homolog 2, RRM domain, GST-SBP tag (RBFOX2, Homo sapiens, UniProt O43251-10, residues 100-194)", "method": "RNA Bind-n-Seq", "molecule type": "RNA", "medium": "in vitro", "concentration": "365 nM", "setting": "natural RNA segment, single round, ends assumed", "baseline": "no-protein control", "reading": "higher = stronger binding", "Construct (chain)": "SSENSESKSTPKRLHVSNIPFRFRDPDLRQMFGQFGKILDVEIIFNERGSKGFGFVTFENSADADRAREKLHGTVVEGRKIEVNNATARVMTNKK"}
{"Sequence": "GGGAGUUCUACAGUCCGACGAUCCUAUGUAAUGUACAGAUACUAGCAUUGCGCAUAUAGUCUGCUUUCUGUUCCUCCAGAAUUUGAGUCCUGUUAAUGUAGUGGCAAAGAAGAAAGUUUCUUUUUCUUUUGUGUGGAAUUCUCGGGUGCCAA", "RBNS enrichment (R)": 0.931}
{"Sequence": "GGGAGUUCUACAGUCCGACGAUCCCAACAGGGGAUGCUCAUCACUGGAGACUGCGACUGGGAAGAACACUGCCCCCUCCCUCGGGUUGGGUGGCCCAGCCAGCUGGCCAGCCUCCACUCCCACUCUGCCAGACUGGAAUUCUCGGGUGCCAA", "RBNS enrichment (R)": 0.342}
{"Sequence": "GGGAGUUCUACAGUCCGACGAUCUCCGCCAGCCAUUGCUCUUGGCUCCCACUUCCUCUGCCAAGAUGCGUUAGCAGAUGGCCAUUCUGGUCAGCUCCCUGCCAGGUCAUAGGGUCACAUACCGUCAACUUCACUGGAAUUCUCGGGUGCCAA", "RBNS enrichment (R)": 0.561}
{"Sequence": "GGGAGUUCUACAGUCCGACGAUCAAAUCCUAAUUCAAAGAUGGCUCAUGUGUGAGGGCAUUGAGUUUGAUUUGUUUUCCCUUUGGUCUGGGUUGUGUGGCUUUUGGGGGAUGCGUGUGAGGGGGCUAUGUGUUUGGAAUUCUCGGGUGCCAA", "RBNS enrichment (R)": 2.28}
{"Sequence": "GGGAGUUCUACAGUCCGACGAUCGUAAGCAGUCAGUCGUGGCUCAGAACUUAACCCCAUAGCUCAGAGGAAUGCUUUUAGCAGAAAACAGGAAAGAAAAUAUCCCUUAAAAAUUUUUUUUGAAUGUGUGGAAGUGGAAUUCUCGGGUGCCAA", "RBNS enrichment (R)": 0.435}
{"Sequence": "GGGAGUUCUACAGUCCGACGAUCCCCAGCUGCCUUUAGGGCCCCCAUUGUUCAUAACAGCAUAUGCAUUUCCCCACCGCGUUGUGUCUGCAGCUUCUUUGCCAAUAUAGUAAUGCUUUUAGUAGAGUACUAGAUGGAAUUCUCGGGUGCCAA", "RBNS enrichment (R)": 4.49}
{"Sequence": "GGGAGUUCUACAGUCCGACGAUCGCUCUUACUACUUAGUCAACUAUCCUCAGCUGUAUUCGUCUUCAAUUGUCAGUAUGGCACAGAUCACUGUAUUAAAAUGCUCUUUCGUCUUCAUAUUUACCUUCUGAGGUUGGAAUUCUCGGGUGCCAA", "RBNS enrichment (R)": 0.327}
{"Sequence": "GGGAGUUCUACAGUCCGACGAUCACUCAUUAAUACCUUGCUCUGCAGUUAUUUUCUAGCAGUCUAUAUAGUAGUUUCACAUCUGUAUUAUUUCCAAGUUUAAACUGUAAGCUCCUUGAGGGCAGGGAUUAUAAUGGAAUUCUCGGGUGCCAA", "RBNS enrichment (R)": 0.468}
{"data": "Series 3", "target": "Histone acetyltransferase KAT6A, winged helix 2, GST fusion (KAT6A, Homo sapiens, UniProt Q92794, residues 85-181)", "method": "protein binding microarray", "molecule type": "double-stranded DNA, one strand shown", "medium": "in vitro", "concentration": "not given", "setting": "8-mer, flanks averaged, mean of 2 arrays, mostly near background", "baseline": "not given", "reading": "higher = stronger binding", "Target sequence (chain)": "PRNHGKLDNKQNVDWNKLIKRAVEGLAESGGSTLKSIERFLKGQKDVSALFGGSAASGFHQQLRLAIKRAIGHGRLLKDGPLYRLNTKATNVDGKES"}
{"Sequence": "CCCCGCCG", "E-score": 0.203}
{"Sequence": "GCTTGACC", "E-score": 0.0417}
{"Sequence": "GGCGGAGA", "E-score": 0.265}
{"Sequence": "GCTCAGCC", "E-score": 0.0274}
{"Sequence": "CCACCATC", "E-score": -0.106}
{"Sequence": "GAACCCAC", "E-score": 0.2}
{"Sequence": "ACTTTATG", "E-score": -0.103}
{"Sequence": "ACCGTCAG", "E-score": 0.0696}
{"Sequence": "GAATTATC", "E-score": -0.0395}
{"Sequence": "AGGCCGCC", "E-score": 0.0532}
{"Sequence": "CTTTCTGC", "E-score": 0.0481}
{"Sequence": "GTAACAAC", "E-score": -0.0468}
{"Sequence": "CAATGTGC", "E-score": -0.0647}
{"Sequence": "CTACTCAA", "E-score": 0.107}
{"Sequence": "CACGGCAC", "E-score": 0.0139}
{"Sequence": "GTCAAGAC", "E-score": -0.162}
{"Sequence": "AGGGCGTG", "E-score": 0.0149}
{"Sequence": "ATGGCTAG", "E-score": -0.145}
{"Sequence": "CTTATGCA", "E-score": 0.0435}
{"Sequence": "TAGAAGCA", "E-score": -0.0272}
{"Sequence": "AATAAACA", "E-score": 0.0731}
{"Sequence": "CGCACTGC", "E-score": 0.185}
{"Sequence": "ATGTGGAA", "E-score": -0.095}
{"Sequence": "AGAACTGC", "E-score": -0.0143}
{"Sequence": "ATACCAGA", "E-score": -0.0725}
{"data": "Series 4", "target": "RING finger protein unkempt homolog, zinc fingers 1-6, GST-SBP tag (UNK, Homo sapiens, UniProt Q9C0B0, residues 30-357)", "method": "RNA Bind-n-Seq", "molecule type": "RNA", "medium": "in vitro", "concentration": "not given", "setting": "RNA with constant flanks, human-mouse chimeric sites, ends assumed", "baseline": "input RNA pool", "reading": "higher = stronger binding", "Target sequence (chain)": "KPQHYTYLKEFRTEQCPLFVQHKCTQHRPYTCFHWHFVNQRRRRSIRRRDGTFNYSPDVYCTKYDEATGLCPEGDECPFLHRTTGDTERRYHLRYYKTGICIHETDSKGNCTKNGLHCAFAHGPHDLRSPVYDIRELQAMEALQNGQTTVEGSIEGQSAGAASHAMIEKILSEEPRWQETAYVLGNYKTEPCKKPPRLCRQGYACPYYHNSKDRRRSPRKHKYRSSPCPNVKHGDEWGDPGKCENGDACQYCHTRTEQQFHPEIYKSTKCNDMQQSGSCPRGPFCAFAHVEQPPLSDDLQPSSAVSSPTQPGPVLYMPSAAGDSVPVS"}
{"Sequence": "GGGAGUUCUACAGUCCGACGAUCGCAGGAUCUUCUAAAUACCAGUGGGACAUUAUGAAAUCCCUUGGGCUCUCUGAUGACGACAUAGUGAAGUUUUCUGAAGCAGAACAUUGGCUUGAUUAUUUCCCACCACUGGCCGUUCAGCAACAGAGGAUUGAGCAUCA", "bound/input enrichment": "0.28 ratio"}
{"Sequence": "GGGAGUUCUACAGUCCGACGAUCAAAGCCCAAGUAUUUUGAAAAAAUUCAAACAGAUUUGACAAGGGUAGCCAGCUUGGAGUCUAGCAACUUUGCCAAUGGUUUACCAAUCUGGGGGCUUGUUUUUCUUUUCUUCUUUCAAAUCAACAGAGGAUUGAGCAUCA", "bound/input enrichment": "0.329 ratio"}
{"Sequence": "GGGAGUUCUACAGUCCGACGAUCUAUCCAACUUUCUUGCCACAUUUUGAAUUCCAAGACAUUAUUCCUCCAGAUGACUUCCUAACGAGUGAUGAAGAAGUAGAUUUGGUUUUAUUUGGAACUAUGAGAGGACAAGUUGUUGGACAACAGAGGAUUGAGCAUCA", "bound/input enrichment": "0.465 ratio"}
{"Sequence": "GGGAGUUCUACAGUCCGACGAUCUGGGCACUCUAUCAGAUAUAUUAAUUUUUUAAUGUAGAUGUAAUUUUAAAAAUGAAUGGCUACUUUACGUGAUAGAUUAGGGUUUUACUAUAUAUGUGUACAUAUGUAUAUAUAUAUAUACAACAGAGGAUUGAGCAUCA", "bound/input enrichment": "11.4 ratio"}
{"Sequence": "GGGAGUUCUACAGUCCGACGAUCAGGAGGAGGUUAAAGGGUGAGAGUGGGGUGGAAGACUGUGUCAUGGCUCUGGAGACACUGUUCAGUGUCCUGCUUUCUCUGUGCAGACUUAUGGCUCCUUACACGCCCUUUCUGACUGAGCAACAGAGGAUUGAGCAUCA", "bound/input enrichment": "0.054 ratio"}
{"Sequence": "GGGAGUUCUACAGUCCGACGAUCACCUCCCAGGCCUGGGACACCCCACCCCCGCUUUUUGGAAAGUUUUUGGCGUUUCUUUUUUUUAGAAAUACAAAGUGAUUACAGUUUCCCCCGCAAGGGUCUAUCGAAGGGCUUGACGGACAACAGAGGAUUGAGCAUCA", "bound/input enrichment": "0.356 ratio"}
{"Sequence": "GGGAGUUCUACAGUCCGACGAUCGUCAACAGUUGUCUCAACCCCAUCCUCUACGCCUUCCUGGAUGAGAACUUCAAGGCCUGCUUCCGCAAGUUCUGCUGUGCAUCUGCCCUGCGCCGGGAGAUGCAGGUGUCUGACCGCGUGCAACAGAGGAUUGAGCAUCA", "bound/input enrichment": "0.38 ratio"}
{"Sequence": "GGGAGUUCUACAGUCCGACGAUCCAGCCUCAGAGCCCAGACUUCCUGGACAUUACCAACCCUAAAGCGGUAUUAGAAAAUGCAUUGAGAAACUUCGCCUGUCUGACCACCGGAGAUGUGAUUGCUAUCAACUACAAUGAGAAGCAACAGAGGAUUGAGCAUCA", "bound/input enrichment": "0.511 ratio"}
{"note": "Some of these lines once more (series 1):"}
{"Sequence": "AGGAGGGG", "E-score": 0.331}
{"Sequence": "CGCACACA", "E-score": 0.264}
{"Sequence": "ATGTGCAG", "E-score": 0.291}
